Experimental data gathered from unrelated publications.
Compare with care: the assays were run in different laboratories.

Compound | test | system | conditions | how to read | endpoint | result
CNC(=O)c1cc(Oc2ccc(NC(=O)Nc3cc(C(C)(C)C)nn3-c3ccc4ncccc4c3)c(F)c2)ccn1 | – | patients | oral, dose not given, cycles 1 and 2, Low Cmax subgroup | – | patients with grade 3 cardiac disorders | 6%
Cc1cc(-c2nnc(N)nc2-c2ccc(F)cc2)cc(Cl)n1 | item: type 1 diabetes mellitus | IO-naive mCRPC patients, male | oral, dose not given, treatment-related, grade 2 | – | patients with immune-mediated AE | 0%
Cc1cc(NC2CCN(C(=O)OC3CCN(C(=O)/C=C/CN(C)C)C3)CC2)n2ncc(C(C)C)c2n1 (stereo not shown) | Phase I dose escalation CTCAE v4.0, item: blood creatinine increased | patients with advanced solid tumours | dose not given, TIW dosing any grade | – | patients with adverse event | 18%
COc1cc(Nc2ncc3c(n2)-c2ccc(Cl)cc2C(c2c(F)cccc2OC)=NC3)ccc1C(=O)O | – | cancer patients | oral, dose not given, all grades any attribution, with: pembrolizumab | – | patients with increased creatinine | 17%
O=C(Nc1nc2cccc(-c3ccc(CN4CCS(=O)(=O)CC4)cc3)n2n1)C1CC1 | – | rheumatoid arthritis patients | oral, 100 mg twice daily, 4 weeks, regardless of relatedness | – | patients with food allergy | 0%
CNC(=O)c1ccc(-c2cnc3ncc(Cc4ccc5ncccc5c4)n3n2)cc1F | item: Insomnia | other cancer patients | oral, 600 mg twice daily, expansion cohort, grade 3-4 | – | patients with adverse event | 0%
OC[C@H]1O[C@@H](O[C@H]2[C@H](O)[C@@H](O)[C@H](O)O[C@@H]2CO)[C@H](O)[C@@H](O)[C@@H]1O | binding, equilibrium dialysis LC-MS | – | 5 µM, thermostabilized A2AR-BRIL construct | relative to: no-protein control, direction not given | z-scored log2 fold change | 0.154
C[C@@H](Nc1cc(F)cc(F)c1)c1cc(C(=O)N(C)C)cc2c(=O)cc(N3CCOCC3)oc12 | CTCAE v4, item: autoimmune colitis | patients with advanced solid tumours | oral, dose not given, phase I dose expansion | – | patients discontinuing for AE | 0%
CCOc1c([C@H](C)n2nc(C)c3c(N)ncnc32)cc(Cl)c(F)c1[C@@H]1CNC(=O)C1 | item: QTcF change above 60 ms | previously treated B-cell malignancy | oral, 20 mg once daily, overall population | relative to: baseline | patients | 2.9%
NC(=O)C1=CN([C@@H]2O[C@H](COP(=O)(O)OP(=O)(O)OC[C@H]3O[C@@H](n4cnc5c(N)ncnc54)[C@H](OP(=O)(O)O)[C@@H]3O)[C@@H](O)[C@H]2O)C=CC1 | binding, equilibrium dialysis LC-MS | – | 5 µM, thermostabilized A2AR-BRIL construct | relative to: no-protein control, direction not given | z-scored log2 fold change | -0.937
